# Literature values that unrelated publications cite.
# Protocols differ between the studies behind these lines.
# Chain of UniProt Q8NG66 (whole entry, looked up): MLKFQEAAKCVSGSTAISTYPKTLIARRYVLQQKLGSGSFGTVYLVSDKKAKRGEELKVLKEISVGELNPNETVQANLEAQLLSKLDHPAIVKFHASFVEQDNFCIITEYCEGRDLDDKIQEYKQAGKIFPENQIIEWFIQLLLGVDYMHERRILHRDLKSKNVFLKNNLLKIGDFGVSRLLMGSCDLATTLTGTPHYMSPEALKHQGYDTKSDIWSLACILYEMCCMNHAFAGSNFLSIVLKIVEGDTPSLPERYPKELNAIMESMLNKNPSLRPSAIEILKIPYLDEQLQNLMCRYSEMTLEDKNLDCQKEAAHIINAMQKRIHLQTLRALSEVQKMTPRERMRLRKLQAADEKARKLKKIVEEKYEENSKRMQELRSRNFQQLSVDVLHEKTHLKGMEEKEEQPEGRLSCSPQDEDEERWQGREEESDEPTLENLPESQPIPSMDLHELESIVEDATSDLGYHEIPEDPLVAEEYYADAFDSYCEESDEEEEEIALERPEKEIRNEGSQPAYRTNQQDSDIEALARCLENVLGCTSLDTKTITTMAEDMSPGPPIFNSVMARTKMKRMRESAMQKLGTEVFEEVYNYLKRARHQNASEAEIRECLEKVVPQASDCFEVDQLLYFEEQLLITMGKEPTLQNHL
SMILES,target or system,assay,test system,conditions,scale,endpoint,result
C=CC(=O)Nc1cc(Nc2nccc(-c3cn(C)c4ccccc34)n2)c(OC)cc1N(C)CCN(C)C,,,human,80 mg,,AUC,11.9 µM·h
C#C[C@]1(O)CC[C@H]2[C@@H]3CCC4=CC(=O)CC[C@@H]4[C@H]3CC[C@@]21C,,,human,"oral, 0.3 mg",,AUC,22.1 ng·h/mL
Cc1nc(Nc2ncc(C(=O)Nc3c(C)cccc3Cl)s2)cc(N2CCN(CCO)CC2)n1,,,human,100 mg,,AUC,318 ng·h/mL
OC(Cn1cncn1)(Cn1cncn1)c1ccc(F)cc1F,,,human,"oral, 50 mg single dose",,AUC,41700 ng·h/mL
CC(C)(O/N=C(\C(=O)N[C@@H]1C(=O)N2C(C(=O)[O-])=C(C[n+]3ccccc3)CS[C@H]12)c1csc(N)n1)C(=O)O,Enterobacter cloacae,,clinical isolate RKI-No_210/15,,,MIC,4 µg/mL
C#Cc1cccc(Nc2ncnc3cc(OCCOC)c(OCCOC)cc23)c1,,,human,"intravenous, 150 mg",,AUC,41300 ng·h/mL
COc1ccc2[nH]c([S+]([O-])Cc3ncc(C)c(OC)c3C)nc2c1 (stereo not drawn),,,human post-RYGB patients,"oral tablet, 20 mg once daily, day 6, 6 months after surgery",,AUC,667 ng·h/mL
COCCCC/C(=N\OCCN)c1ccc(C(F)(F)F)cc1,,,human,"oral, 25 mg single dose",,AUC,98.4 ng·h/mL
Cn1cnc2c(F)c(Nc3ccc(Br)cc3Cl)c(C(=O)NOCCO)cc21,,,human,"75 mg, with: rifampicin",,AUC,2200 ng·h/mL
CCC(C)n1ncn(-c2ccc(N3CCN(c4ccc(OCC5COC(Cn6cncn6)(c6ccc(Cl)cc6Cl)O5)cc4)CC3)cc2)c1=O (stereo not drawn),,,human,"oral, 200 mg single dose",,AUC,1820 ng·h/mL
Nc1cc(C(F)(F)F)c(-c2nc(N3CCOCC3)nc(N3CCOCC3)n2)cn1,"Serine/threonine-protein kinase Nek11 (NEK11, Homo sapiens, UniProt Q8NG66)",enzyme activity,,10 µM,reference: untreated,remaining activity,100%
O=C(c1cc(Cc2n[nH]c(=O)c3ccccc23)ccc1F)N1CCN(C(=O)C2CC2)CC1,,,human,"oral, 100 mg tablet, single dose, with: itraconazole 200 mg qd for 7 days",,AUC,40100 ng·h/mL

# Repeated from above:
SMILES,target or system,assay,test system,conditions,scale,endpoint,result
C#Cc1cccc(Nc2ncnc3cc(OCCOC)c(OCCOC)cc23)c1,,,human,"intravenous, 150 mg",,AUC,41300 ng·h/mL
